{"data": "Assay results collected from several papers", "XDH": "Xanthine dehydrogenase/oxidase (XDH, Homo sapiens, UniProt P47989)", "OVA5": "Lysine--tRNA ligase, chloroplastic/mitochondrial (OVA5, Arabidopsis thaliana, UniProt Q9LJE2)", "PRKACA": "cAMP-dependent protein kinase catalytic subunit alpha (PRKACA, Homo sapiens, UniProt P17612)", "NTRK1": "High affinity nerve growth factor receptor (NTRK1, Homo sapiens, UniProt P04629)", "PIK3CB with p85 alpha": "Phosphatidylinositol 4,5-bisphosphate 3-kinase catalytic subunit beta isoform, with p85 alpha (PIK3CB, Homo sapiens, UniProt P42338)", "IL1RL1 with IL-33": "Interleukin-1 receptor-like 1, with IL-33 (IL1RL1, Homo sapiens, UniProt Q01638)", "note": "“And” joins repeats or separate records; there may be more than shown. ± gives the spread as reported."}
{"Structure (SMILES)": "CC[n+]1ccc(/C=C/C=C/c2ccc(N(C)C)cc2)c2ccccc21.[O-][Cl+3]([O-])([O-])[O-]", "target": "Amyloid-beta precursor protein, amyloid-beta fibrils (APP, Homo sapiens, UniProt P05067)", "IC50": "0.102 µM"}
{"Structure (SMILES)": "Cc1ccc2ccc3ccc(C)nc3c2n1", "target": "XDH", "test": "enzyme activity, inhibitor", "IC50": "> 75 µM"}
{"Structure (SMILES)": "COc1c(C=O)c2c(c3c1CC(C)(C)C3)C(=O)OC(O)C2 (stereo not shown)", "target": "14 kDa phosphohistidine phosphatase (Homo sapiens, UniProt Q9NRX4, C69A/C71A/C73A)", "test": "enzyme activity, inhibitor", "IC50": "14 ± 3 µM"}
{"Structure (SMILES)": "Nc1nsc(C(=O)NCc2ccccn2)c1Cl", "target": "OVA5", "test": "enzyme activity, inhibitor", "IC50": "> 100 µM"}
{"Structure (SMILES)": "O=C(NCCNC(=O)c1ccccc1)C1=CN(c2ncnc3nc[nH]c23)CCS1", "target": "PRKACA", "IC50": "> 10 µM"}
{"Structure (SMILES)": "O=C(O)CC[C@H](NC(=O)N[C@@H](CCCCNC(=O)[C@H](Cc1ccc2ccccc2c1)NC(=O)[C@H]1CC[C@H](CNC(=O)CN2CCN(CC(=O)O)CCN(CC(=O)O)CCN(CC(=O)O)CC2)CC1)C(=O)O)C(=O)O", "target": "Glutamate carboxypeptidase 2 (FOLH1, Homo sapiens, UniProt Q04609)", "test": "competitive binding", "test system": "22Rv1", "conditions": "added: 68Ga-labelled compound", "IC50": "0.00338 µM"}
{"Structure (SMILES)": "N[C@@H]1CCCN(C(=O)C2=CN(c3ncnc4[nH]ccc34)CCS2)C1", "target": "PRKACA", "IC50": "< 0.1 µM"}
{"Structure (SMILES)": "Brc1c(Br)c(Br)c2n[nH]nc2c1Br", "target": "Dual specificity tyrosine-phosphorylation-regulated kinase 1A (Dyrk1a, Rattus norvegicus, UniProt Q63470)", "test": "inhibitor", "IC50": "1.08 ± 0.15 µM"}
{"Structure (SMILES)": "COc1cc(C(=O)NS(=O)(=O)c2ccccc2C)ccc1Cc1cn(C)c2ccc(NC(=O)OC3CCCC3)cc12", "target": "LRRC8A/LRRC8C (Homo sapiens, UniProt Q8IWT6+Q8TDW0, E6A)", "test": "ion current, inhibitor, whole-cell patch clamp", "test system": "HCT116 LRRC8-/- transfected", "conditions": "at -100 mV", "IC50": "1.6 µM"}
{"Structure (SMILES)": "Nc1nsc(C(=O)NCc2cc(F)c(F)cc2F)c1Cl", "target": "OVA5", "test": "enzyme activity, inhibitor", "IC50": "15.8 µM"}
{"Structure (SMILES)": "CN1CCC(CNc2ccc3ncc(-c4cccc(OC(F)(F)F)c4)n3n2)CC1", "target": "GABA-A receptor; alpha-1/beta-2/gamma-2 (Homo sapiens, UniProt P14867+P18507+P47870)", "test": "membrane potential, blocker", "conditions": "top concentration 10 µM", "IC50": "6 µM"}
{"Structure (SMILES)": "COc1cc(/C=C/C(=O)CC(=O)/C=C/c2ccc(O)c(OC)c2)ccc1O", "target": "XDH", "test": "enzyme activity, inhibitor", "IC50": "> 75 µM"}
{"Structure (SMILES)": "Nc1nsc(C(=O)NCc2cccc(Cl)c2Cl)c1Cl", "target": "OVA5", "test": "enzyme activity, inhibitor", "IC50": "> 100 µM"}
{"Structure (SMILES)": "O=C(NO)c1ccc(Cn2cnc3c(Nc4cccc([N+](=O)[O-])c4)ncnc32)cc1", "target": "RAC-alpha serine/threonine-protein kinase (AKT1, Homo sapiens, UniProt P31749)", "test": "kinase activity, inhibitor", "conditions": "added: ATP 10 µM", "IC50": "19.2 µM"}
{"Structure (SMILES)": "N=C1N[C@H](CO)[C@H](O)[C@H](O)[C@H]1O", "target": "sweet almond β-glucosidase", "test": "enzyme activity, inhibitor", "conditions": "pH 5.00, added: 2-chloro-4-nitrophenyl β-D-glucopyranoside", "IC50": "> 1000 µM"}
{"Structure (SMILES)": "N=C(N)Nc1cccc(C(=O)NCC(=O)NC[C@H](NC(=O)c2c(Cl)cccc2Cl)C(=O)O)c1", "target": "Integrin alpha-5/beta-1 (Homo sapiens, UniProt P05556+P08648)", "test": "cell adhesion, inhibitor", "test system": "SW480", "conditions": "added: fibronectin 0.3 µg/mL", "IC50": "0.0501 µM"}
{"Structure (SMILES)": "C[C@@H]1CN(C(=O)c2ccc(NC(=O)c3cc(O[C@H](C)c4c(Cl)ccc(F)c4Cl)c(N)nn3)cc2)C[C@H](C)N1", "target": "NTRK1", "test": "enzyme activity, inhibitor", "conditions": "added: 1 mM ATP", "IC50": "0.021 µM"}
{"Structure (SMILES)": "C#Cc1c(N)nsc1C(=O)NCC1CCCC1", "target": "OVA5", "test": "enzyme activity, inhibitor", "IC50": "31.6 µM"}
{"Structure (SMILES)": "NC(=O)[C@@H]1CC[C@@H]2CN1C(=O)N2OS(=O)(=O)O", "target": "beta-lactamase RAD-1 (Riemerella anatipestifer)", "test": "enzyme activity, inhibitor, spectrophotometric reporter substrate hydrolysis", "IC50": "13 µM"}
{"Structure (SMILES)": "Cc1nn(-c2nc3ccccc3[nH]2)c(O)c1C(c1ccccc1C(=O)O)c1c(C)nn(-c2nc3ccccc3[nH]2)c1O", "target": "Cyclic GMP-AMP synthase (CGAS, Homo sapiens, UniProt Q8N884)", "test": "enzyme activity, inhibitor, pyrophosphatase-coupled", "conditions": "mean of 3 runs", "IC50": "5.52 µM"}
{"Structure (SMILES)": "COc1c([C@H]2[C@H](C(=O)Nc3ccnc(C(N)=O)c3)O[C@@](C)(C(F)(F)F)[C@H]2C)ccc(F)c1F", "target": "Equilibrative nucleoside transporter 1 (Cavia porcellus, UniProt H0V4R7)", "test": "binding", "IC50": "8.8 µM"}
{"Structure (SMILES)": "Cc1ncsc1-c1ccc(CNC(=O)[C@@H]2C[C@@H](O)CN2C(=O)[C@@H](NC(=O)C2(F)CC2)C(C)(C)C)c(OCCOc2ccc(CN3CCN(c4cc(-c5ccccc5O)nnc4N)CC3)cc2)c1", "target": "SWI/SNF-related matrix-associated actin-dependent regulator of chromatin subfamily A member 4 (SMARCA4, Homo sapiens, UniProt P51532)", "IC50": "0.67 ± 0.09 µM"}
{"Structure (SMILES)": "CN/C(=N/CCSCc1nc[nH]c1C)NC#N", "target": "Solute carrier family 22 member 2 (SLC22A2, Homo sapiens, UniProt O15244)", "test": "inhibitor", "IC50": "52.4 µM"}
{"Structure (SMILES)": "C[C@]12CC[C@@H]3c4ccc(O)cc4C[C@@H](CCCCCCCCC[S+]([O-])CCCC(F)(F)C(F)(F)F)[C@H]3[C@@H]1CC[C@@H]2O (stereo partly shown)", "target": "Glucocorticoid receptor (NR3C1, Homo sapiens, UniProt P04150)", "test": "GR receptor activity, antagonist, cell-based", "IC50": "0.553 µM"}
{"Structure (SMILES)": "Nc1nsc(C(=O)NCC2CCCC2)c1Cl", "target": "OVA5", "test": "enzyme activity, inhibitor", "IC50": "15.8 µM"}
{"Structure (SMILES)": "CO[C@@H]1[C@H](O)[C@@H](O)C(NCc2ccc(C)cc2)=N[C@@H]1CO", "target": "sweet almond β-glucosidase", "test": "enzyme activity, inhibitor", "conditions": "pH 5.00, added: 2-chloro-4-nitrophenyl β-D-glucopyranoside", "IC50": "> 5000 µM"}
{"Structure (SMILES)": "Cc1cnc(-c2ccc(-c3ccc(NC(=O)Nc4c(F)cc(F)cc4F)cc3F)c3c2C(=O)NC3)[nH]1", "target": "Aurora kinase C (AURKC, Homo sapiens, UniProt Q9UQB9)", "test": "kinase activity, inhibitor, cell-free", "conditions": "90 min, 28 °C, added: ATP", "IC50": "0.00295 µM"}
{"Structure (SMILES)": "CN1CCN(c2ccc(Nc3ncc4cc(C#N)c(=O)n(C5CCCC5)c4n3)cc2)CC1", "target": "Casein kinase II subunit alpha' (CSNK2A2, Homo sapiens, UniProt P19784)", "IC50": "0.0722 µM"}
{"Structure (SMILES)": "Cc1cc([C@@H](C)Nc2ccccc2C(=O)O)c2nc(N3CCC(F)(F)CC3)c(C#N)c(=O)n2c1", "target": "PIK3CB with p85 alpha", "test": "ADP-Glo", "conditions": "added: ATP 10 µM", "IC50": "> 10 µM"}
{"Structure (SMILES)": "CC1(CNC(=O)c2snc(N)c2Cl)CCCCC1", "target": "OVA5", "test": "inhibitor", "IC50": "10 µM"}
{"Structure (SMILES)": "Cc1c(Cc2ccccc2)c(=O)oc2c(C)c(OCC(=O)NN=Cc3ccccc3)ccc12", "target": "PIK3CB with p85 alpha", "test": "enzyme activity, inhibitor, ADP-Glo", "IC50": "0.533 ± 0.0525 µM"}
{"Structure (SMILES)": "Cc1noc(C)c1C1=CN(c2ncnc3[nH]cc(C)c23)CCS1", "target": "PRKACA", "IC50": "> 10 µM"}
{"Structure (SMILES)": "CC[C@@H]1[C@H](F)C(=O)N[C@@H]1COc1nccc2cc(C(N)=O)c(OC)cc12", "target": "Serine/threonine-protein kinase Sgk3 (SGK3, Homo sapiens, UniProt Q96BR1)", "test": "ATP-site probe binding, ActivX profiling", "test system": "THP-1 cell lysate", "conditions": "Lys2 site", "IC50": "> 5 µM"}
{"Structure (SMILES)": "Nc1cc(C(=O)NCC2CCCCC2)sn1", "target": "OVA5", "test": "enzyme activity, inhibitor", "IC50": "63.1 µM"}
{"Structure (SMILES)": "Cc1noc(C)c1C1=CN(c2ncnc3[nH]ccc23)CCS1", "target": "PRKACA", "IC50": "> 10 µM"}
{"Structure (SMILES)": "CN(C)c1cccc(C2CCCN2Cc2ccc(-c3ccccc3[N+](=O)[O-])o2)c1 (stereo not shown)", "target": "IL1RL1 with IL-33", "test": "binding, AlphaLISA", "IC50": "5 to 7 µM and < 10 µM"}
{"Structure (SMILES)": "N[C@@H]1CCN(C(=O)C2=CN(c3ncnc4[nH]ccc34)CCS2)C1", "target": "PRKACA", "IC50": "< 0.1 µM"}
{"Structure (SMILES)": "C=Cc1c(N)nsc1C(=O)NCC1CCCCC1", "target": "OVA5", "test": "enzyme activity, inhibitor", "IC50": "63.1 µM"}
{"Structure (SMILES)": "CO[C@H]1O[C@H](COS(=O)(=O)O)[C@@H](O[C@@H]2O[C@@H](C(=O)O)[C@@H](O[C@H]3O[C@H](COS(=O)(=O)O)[C@@H](O[C@@H]4O[C@H](C(=O)O)[C@@H](O[C@H]5O[C@H](COS(=O)(=O)O)[C@@H](O)[C@H](O)[C@H]5NS(=O)(=O)O)[C@H](O)[C@H]4O)[C@H](OS(=O)(=O)O)[C@H]3NS(=O)(=O)O)[C@H](O)[C@H]2OS(=O)(=O)O)[C@H](O)[C@H]1NS(=O)(=O)O", "target": "Beta-2-glycoprotein 1, with anti-β2GPI antibody (APOH, Homo sapiens, UniProt P02749)", "test": "binding to cardiolipin, ELISA", "conditions": "added: β2GPI 4 nM", "IC50": "670 µM"}
{"Structure (SMILES)": "COc1ccc(/C=C/C(=O)Nc2ccccc2C(=O)O)cc1OC", "target": "XDH", "test": "enzyme activity, inhibitor", "IC50": "> 75 µM"}
{"Structure (SMILES)": "Cc1ncsc1-c1ccc(CNC(=O)[C@@H]2C[C@H](O)CN2C(=O)[C@@H](NC(=O)C2(F)CC2)C(C)(C)C)c(OCCc2ccc(CN3CCN(c4cc(-c5ccccc5O)nnc4N)CC3)cc2)c1", "target": "SWI/SNF-related matrix-associated actin-dependent regulator of chromatin subfamily A member 4, bromodomain (SMARCA4, Homo sapiens, UniProt P51532)", "test": "binding, TR-FRET competition", "conditions": "binary without VCB", "IC50": "1.2 µM"}
{"Structure (SMILES)": "C[C@H]1CCN(C(=O)C2=CN(c3ncnc4[nH]ccc34)CCS2)C[C@@H]1N", "target": "PRKACA", "IC50": "0.0074 ± 0.0004 µM"}
{"Structure (SMILES)": "COc1cc(N2CCC(N3CCN(C)CC3)CC2)ccc1Nc1ncc(Cl)c(Nc2ccccc2P(C)(C)=O)n1", "target": "NTRK1", "test": "enzyme activity, inhibitor", "conditions": "added: 1 mM ATP", "IC50": "0.8 µM"}
{"Structure (SMILES)": "C=CC(=O)N1CCN(c2nc(=O)n(-c3c(C)ccnc3C(C)C)c3nc(-c4c(O)cccc4F)c(F)cc23)[C@@H](C)C1", "target": "GTPase HRas (HRAS, Homo sapiens, UniProt P01112, C181S/C184S/C186S/G12C)", "IC50": "0.087 µM"}
{"Structure (SMILES)": "Cc1ccc([N+](=O)[O-])c(-c2ccc(CN3CCCC3c3ccc(N(C)C)cc3)o2)c1 (stereo not shown)", "target": "IL1RL1 with IL-33", "test": "binding, AlphaLISA", "IC50": "9 µM"}
{"Structure (SMILES)": "OC[C@H]1NC[C@H](O)[C@@H](O)[C@@H]1O", "target": "ATH1 (Pleurotus sp., UniProt A0A8D5F0R5)", "test": "enzyme activity, inhibitor, Somogyi-Nelson reducing sugar", "conditions": "pH 5.0, preincubation 30 min at 37 °C, added: trehalose 20 mM", "IC50": "16 µM"}
